Measurements from different studies.
A part holds a random share of what one study measured.

Study 1 — technique: protein-binding microarray; molecule type: double-stranded DNA, one strand shown; sample: in vitro; concentration: 250 nM; notes: 60-bp whole probe; with: salmon DNA 0.4 mg/ml; baseline: random background probes; reading: higher = stronger binding; all sequences stand within: GCCTAGCAC … GTCTTGATTCGCTTGACGCTGCTG
Target: Interferon regulatory factor 5, full length, phosphomimetic (IRF5, Homo sapiens, UniProt Q13568-2, residues 1-514, K96S/S451D/S453D/S456D/S462D)
Oligonucleotide | log fluorescence [z-score]
TTAGATTTGAGTCTCGATTAGTGCTAG | 0.829
GACGGTATCGGTTTCGGGGCGTGCTAG | 7.83
GACGAACTGAGACTGGAGAAGTGCTAG | -0.084
TTAGGTCTCCTACTGATTTAGTGCTAG | -0.252
CCAAGGTTCAAGTTTACCCATGTGCTA | -0.365
GACGGTATCGTCTTTCGGGACGTGCTA | 3.69
TTAGACCTGAGTATCGATTAGTGCTAG | 6.11
GACGGCATCCTACTGCTGACGTGCTAG | -0.319
TTAGGTTTCCACTTTCGGTTAGTGCTA | 10.6
TCAGGACTGCTTTTCCTTTAGTGCTAG | 0.282
GACGGTTTCCTTTTCCTAACGTGCTAG | 1.36
GACGGTGTCGGACTGGGGACGTGCTAG | -0.252
TCAGTGGTCTGTTTCTGACTGTGCTAG | 0.556
GACGGTATCGGTCTCGGCACGTGCTAG | 4.99
GATGGACTGCTTATCCTGACGTGCTAG | -0.349
GACGGTTTCGAACTGGGGACGTGCTAG | 2.45
GACGATTTCAGTGTCGAGACGTGCTAG | 1.01
GACGGACTGGGTTTCGTGACGTGCTAG | 0.393
GACGGTATCGGTCTCCGGACGTGCTAG | 5.54
TTGCTTTCCTTCTTGAACTCGTGCTAG | 1.98
GACGATATCAGTATTGAGACGTGCTAG | 1.22

Study 2 — organism: Saccharomyces cerevisiae; observed: cell growth; technique: competitive growth deep sequencing; molecule type: peptide; notes: peptide tiling library; with: cyclin E2-Cln2 fusion; reading: direction not given
Sequence | enrichment score
PAKRRLELGE | 1.21
FQDSGYNELKSCSFDN | 0.528
KPKPVKPVTFSTGIKM | 1.99
IVLICAKRSLCAAFSV | -0.793
PKRAKRKLYTSEISSP | 0.315
DGCSPIKNWSPMRL | 0.508
KPHVSDEEEEEPPFYH | 1.21
TARRIFQEPTEPKTKA | 0.0884
SSEVARHLLFQSHM | -0.863
SMTDFYHSKRRLIFSK | -1.05
PARRRLRLSVDEVSSP | -0.394
GLPDFVFQQQPVESEA | 0.928
DTERAHSTLDEDLERW | 1.25
SAVPLILPQAPSGPSY | 2.49
VLVRTSACRSLFGPVD | -0.178

Study 3 — technique: RNA Bind-n-Seq; molecule type: RNA; sample: in vitro; concentration: 1 µM; notes: whole 134-nt RNA, ends assumed; with: 150 mM KCl; baseline: input library; reading: higher = stronger binding
Target: Ras GTPase-activating protein-binding protein 1, C-terminal RGG region (G3BP1, Homo sapiens, UniProt Q13283)
Sequence of UniProt Q13283 (whole entry, looked up): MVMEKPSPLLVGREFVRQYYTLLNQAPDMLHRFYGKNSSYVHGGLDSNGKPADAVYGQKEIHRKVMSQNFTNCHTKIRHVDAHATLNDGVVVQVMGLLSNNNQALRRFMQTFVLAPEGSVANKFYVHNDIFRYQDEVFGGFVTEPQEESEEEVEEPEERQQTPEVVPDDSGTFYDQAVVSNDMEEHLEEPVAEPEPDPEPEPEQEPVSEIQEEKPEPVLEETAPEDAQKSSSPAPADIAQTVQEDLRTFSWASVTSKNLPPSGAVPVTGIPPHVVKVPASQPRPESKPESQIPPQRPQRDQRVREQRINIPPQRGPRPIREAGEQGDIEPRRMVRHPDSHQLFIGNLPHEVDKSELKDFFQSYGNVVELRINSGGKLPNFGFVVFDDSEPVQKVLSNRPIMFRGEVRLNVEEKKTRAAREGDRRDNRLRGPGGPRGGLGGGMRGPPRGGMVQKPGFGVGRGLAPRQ
All sequences stand within: GGGAGUUCUACAGUCCGACGAUC … UGGAAUUCUCGGGUGUCAAGG
Oligonucleotide | log2 enrichment
UAACUUUAGAGGAGGAUCUGAUGGAUAUGGCAGUGGACGUGGAUUUGGGGAUGUCUAUAAUGGGUAUGGAGGAGGACCUGGAGGUGGCAA | -0.0898
AAGUCCUGUGCUACACAUCGUAUGUACCGAAUCGGGUUUGGGGUUUGGGGUUUGGGGAAAGUAUUAUGUUACGCCGUUCGGAUCUGCACU | 1.53
UGGCCCUGGUGGCAUGCGGGGAGGAAGAGGUGGCCUCAUGGAUCGUGGUGGUCCCGGUGGAAUGUUCAGAGGUGGCCGUGGUGGAGACGG | 3.05
AAGUCCUGUGCUACACAUCGUAUGUACCGAAUCGGGUUUUUGGGAAAAAGGGAGGGAAAGUAUUAUGUUACGCCGUUCGGAUCUGCACUU | 1.14
GCAGGAAGUAAAAACAAAUGGAAAUGCUUCGGAUAGUGGCAGGGGUGGGGGUUGCUAAGGAAAGGGUGGGAUGGGAGUGGGUAAAGAAAU | 2.1
UGGCCCUUGUGGCAUGCGGGGAGGAAGAGGUGGCCUCAUGGAUCGUGGUGGUCCCGGUGGAAUGUUCAGAGGUGGCCGUGGUGGAGACAG | 1.86
ACCAUGCAGGUGGGCCUCUUUGGGAAGUGGGGCAAGGGGGGGAUAGGGAGGGGGGUAACACUUUGGGAACAGGUGGUCCCAGGUCGUUUC | -1.31
GUCCUGUGCUACACAUCGUAUGUACCGAAUCGGAAAAAGGAAAAAGGGGAAAAAGGGGAAAGUAUUAUGUUACGCCGUUCGGAUCUGCAC | -0.919
UGGGAGGUGGAUUUUGUUUAUUUUUUUAGCUCAUUUCCAGGGGUGGGAAUUUUUUUUUAAUAUGUGUCAUGAUUAAAGUUGUUUUUGAAA | 3.61
UGGCCCUGGUGGCAUGCGGGGAGGAAGAGGUGGCCUCAUGGAUCGUGGCGGUCCCGGUGGAAUGUUCAGAGGUGGCCGUGGUGGAGACAG | 0.241
GUCCUGUGCUACACAUCGUAUGUACCGAAUCGGGGAAAAAAAGGGGUGGGGUUUGGGGAAAGUAUUAUGUUACGCCGUUCGGAUCUGCAC | 1.66
GCAGGAAGUAAAAACAAAUGGAAAUGCUUCGGAUAGUGGCAGGGGCGGGGGUUGCUAAGGAAAGGGUGGGAUGGGAGUGGGUAAAGAGUU | 0.537
CCUGUGCUACACAUCGUAUGUACCGAAUCGGGAAAAAAGGGAAAAAAGGGGAAAAAAGGGGAAAGUAUUAUGUUACGCCGUUCGGAUCUG | -1.24
CACAGACAACACGCACCCACACAGACACAGAGGGAAGGGGUUGGGAUGGGGACAGGGUGCACAGCAGAAAGGGGUAGGACCCCAGCCCCU | -0.326

Study 4 — technique: universal PBM; molecule type: double-stranded DNA, one strand shown; sample: in vitro; concentration: 600 nM; reading: higher = stronger binding
Target: Sal-like protein 4, full length isoform A (SALL4, Homo sapiens, UniProt Q9UJQ4, residues 1-1053)
Sequence of UniProt Q9UJQ4 (whole entry, looked up): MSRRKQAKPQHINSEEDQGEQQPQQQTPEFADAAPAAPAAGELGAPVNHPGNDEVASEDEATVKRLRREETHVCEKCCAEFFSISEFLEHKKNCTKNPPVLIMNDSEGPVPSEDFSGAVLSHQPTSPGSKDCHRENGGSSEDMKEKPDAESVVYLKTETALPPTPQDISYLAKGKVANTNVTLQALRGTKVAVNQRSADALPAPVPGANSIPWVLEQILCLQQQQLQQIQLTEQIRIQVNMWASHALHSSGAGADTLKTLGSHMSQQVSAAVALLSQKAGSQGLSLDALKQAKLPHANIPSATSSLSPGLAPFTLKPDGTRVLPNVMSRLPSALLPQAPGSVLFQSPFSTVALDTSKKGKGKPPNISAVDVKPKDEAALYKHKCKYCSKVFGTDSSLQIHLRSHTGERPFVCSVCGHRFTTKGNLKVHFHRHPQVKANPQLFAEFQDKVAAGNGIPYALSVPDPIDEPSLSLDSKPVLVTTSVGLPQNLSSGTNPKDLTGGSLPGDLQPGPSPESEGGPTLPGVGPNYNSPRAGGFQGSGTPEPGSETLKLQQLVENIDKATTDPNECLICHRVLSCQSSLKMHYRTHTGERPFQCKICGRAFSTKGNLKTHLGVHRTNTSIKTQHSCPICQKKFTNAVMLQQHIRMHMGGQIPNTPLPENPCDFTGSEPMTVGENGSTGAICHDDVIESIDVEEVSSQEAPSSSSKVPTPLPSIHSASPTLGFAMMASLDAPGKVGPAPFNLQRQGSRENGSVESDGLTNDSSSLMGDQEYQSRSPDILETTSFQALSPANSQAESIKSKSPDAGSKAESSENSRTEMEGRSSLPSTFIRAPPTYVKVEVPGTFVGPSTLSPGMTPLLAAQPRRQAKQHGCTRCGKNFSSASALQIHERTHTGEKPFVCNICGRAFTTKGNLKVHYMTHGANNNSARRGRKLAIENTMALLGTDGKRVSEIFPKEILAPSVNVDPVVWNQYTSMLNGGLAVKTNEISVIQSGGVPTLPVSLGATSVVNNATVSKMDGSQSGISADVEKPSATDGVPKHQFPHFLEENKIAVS
Notes: 8-mer, flanks averaged, mean of replicates
Oligonucleotide | E-score
TGGCGGAA | -0.227
GCGACCGC | -0.293
GATGGGCA | -0.125
AACCGAGA | 0.113
TAAACCAA | 0.209
ACTAGCCT | -0.00704
CTGAAGAA | -0.0672
GATCATGC | -0.111
CGATCATC | 0.0828
AAGTTACT | 0.14
GTCCACAC | -0.147
AGCAAGCC | -0.235
GAGCGCAA | -0.214
CCATAGGC | -0.191
AACGAGGA | 0.0003
GAATCCGA | -0.0291
ACCAGTGC | -0.307
CAAAAGCC | -0.0311
CGGTATCA | 0.0773
CCTACTGA | -0.0185
GACCAAGC | -0.154
CCGTCGTC | -0.348
GGTGTGAC | -0.321
GAAAAATA | 0.371
CTGAGGCA | -0.15

Excerpt of the above (study 1):
Oligonucleotide | log fluorescence [z-score]
CCAAGGTTCAAGTTTACCCATGTGCTA | -0.365
GACGGTATCGTCTTTCGGGACGTGCTA | 3.69
TTAGACCTGAGTATCGATTAGTGCTAG | 6.11
GACGGCATCCTACTGCTGACGTGCTAG | -0.319
TTAGGTTTCCACTTTCGGTTAGTGCTA | 10.6
